Assay results pooled from the literature.
Each line is one published result; not all experiments were run side by side. Several values in a cell are separate wells, animals, samples, runs or records. Numbers after ± are the reported error.
Nuclear receptor subfamily 2 group C member 2 ligand-binding domain: Nuclear receptor subfamily 2 group C member 2, ligand-binding domain (Homo sapiens, UniProt P49116)
UniProt O14980, sequence (whole entry, looked up): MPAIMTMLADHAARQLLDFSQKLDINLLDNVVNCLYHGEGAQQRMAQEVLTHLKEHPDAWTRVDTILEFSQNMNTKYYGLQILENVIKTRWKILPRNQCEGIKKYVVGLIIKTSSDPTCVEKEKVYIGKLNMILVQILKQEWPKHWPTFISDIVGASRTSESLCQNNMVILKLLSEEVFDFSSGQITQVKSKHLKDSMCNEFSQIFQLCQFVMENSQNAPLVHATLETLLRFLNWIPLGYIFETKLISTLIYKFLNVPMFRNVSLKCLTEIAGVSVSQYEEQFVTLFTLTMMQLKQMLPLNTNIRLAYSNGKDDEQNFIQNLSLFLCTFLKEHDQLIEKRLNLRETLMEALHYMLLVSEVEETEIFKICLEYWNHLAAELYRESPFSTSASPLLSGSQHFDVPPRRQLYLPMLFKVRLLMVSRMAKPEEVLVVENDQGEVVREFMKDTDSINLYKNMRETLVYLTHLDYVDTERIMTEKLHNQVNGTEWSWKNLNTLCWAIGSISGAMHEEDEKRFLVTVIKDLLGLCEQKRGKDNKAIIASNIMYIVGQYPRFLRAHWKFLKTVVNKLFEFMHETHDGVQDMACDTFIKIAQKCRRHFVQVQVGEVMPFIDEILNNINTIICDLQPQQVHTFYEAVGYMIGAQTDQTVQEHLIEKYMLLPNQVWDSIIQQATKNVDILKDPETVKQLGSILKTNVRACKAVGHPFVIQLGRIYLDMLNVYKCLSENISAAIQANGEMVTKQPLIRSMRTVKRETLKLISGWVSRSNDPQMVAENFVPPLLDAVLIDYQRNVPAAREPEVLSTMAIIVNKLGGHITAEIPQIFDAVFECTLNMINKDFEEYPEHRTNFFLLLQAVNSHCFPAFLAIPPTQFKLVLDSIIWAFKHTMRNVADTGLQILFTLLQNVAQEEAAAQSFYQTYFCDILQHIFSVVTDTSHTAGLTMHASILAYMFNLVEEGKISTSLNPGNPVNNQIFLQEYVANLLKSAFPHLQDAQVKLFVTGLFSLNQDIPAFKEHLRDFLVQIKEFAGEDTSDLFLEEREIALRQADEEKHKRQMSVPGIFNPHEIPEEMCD
UniProt P49116, sequence (whole entry, looked up): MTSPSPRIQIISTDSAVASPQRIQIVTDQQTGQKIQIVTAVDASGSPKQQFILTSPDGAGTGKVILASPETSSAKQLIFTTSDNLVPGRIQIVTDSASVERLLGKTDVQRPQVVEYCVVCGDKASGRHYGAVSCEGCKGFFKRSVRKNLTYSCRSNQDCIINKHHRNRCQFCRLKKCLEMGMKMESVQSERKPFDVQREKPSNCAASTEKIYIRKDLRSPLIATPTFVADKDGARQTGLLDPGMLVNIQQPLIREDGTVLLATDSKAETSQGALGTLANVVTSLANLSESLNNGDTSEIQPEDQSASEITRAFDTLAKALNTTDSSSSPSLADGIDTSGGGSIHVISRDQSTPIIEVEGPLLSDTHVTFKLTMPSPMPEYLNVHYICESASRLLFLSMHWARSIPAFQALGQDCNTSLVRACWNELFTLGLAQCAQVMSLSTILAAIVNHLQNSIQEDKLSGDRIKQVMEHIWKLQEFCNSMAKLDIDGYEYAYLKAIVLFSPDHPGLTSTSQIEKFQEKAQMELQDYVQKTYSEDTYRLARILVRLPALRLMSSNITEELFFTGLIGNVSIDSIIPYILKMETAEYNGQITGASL
UniProt Q62351, sequence (whole entry, looked up): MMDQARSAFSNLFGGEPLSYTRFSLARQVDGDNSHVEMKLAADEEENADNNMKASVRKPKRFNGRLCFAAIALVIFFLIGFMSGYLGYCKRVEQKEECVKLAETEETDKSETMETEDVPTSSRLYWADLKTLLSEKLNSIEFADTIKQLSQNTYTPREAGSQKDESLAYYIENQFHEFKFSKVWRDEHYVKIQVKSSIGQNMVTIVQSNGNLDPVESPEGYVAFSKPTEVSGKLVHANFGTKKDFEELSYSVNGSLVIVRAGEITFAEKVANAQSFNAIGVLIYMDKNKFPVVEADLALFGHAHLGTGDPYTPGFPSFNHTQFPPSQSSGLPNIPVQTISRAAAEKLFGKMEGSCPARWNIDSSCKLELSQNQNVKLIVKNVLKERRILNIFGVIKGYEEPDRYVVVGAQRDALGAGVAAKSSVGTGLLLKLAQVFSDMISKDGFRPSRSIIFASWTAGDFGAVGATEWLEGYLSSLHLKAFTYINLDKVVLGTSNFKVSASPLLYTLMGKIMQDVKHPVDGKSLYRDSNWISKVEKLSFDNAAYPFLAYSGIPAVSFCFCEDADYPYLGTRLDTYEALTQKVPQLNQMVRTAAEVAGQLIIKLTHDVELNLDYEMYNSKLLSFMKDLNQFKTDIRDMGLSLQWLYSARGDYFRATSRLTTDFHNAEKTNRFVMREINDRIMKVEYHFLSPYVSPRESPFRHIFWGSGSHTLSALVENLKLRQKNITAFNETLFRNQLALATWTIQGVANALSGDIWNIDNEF
UniProt Q9Y4B6, sequence (whole entry, looked up): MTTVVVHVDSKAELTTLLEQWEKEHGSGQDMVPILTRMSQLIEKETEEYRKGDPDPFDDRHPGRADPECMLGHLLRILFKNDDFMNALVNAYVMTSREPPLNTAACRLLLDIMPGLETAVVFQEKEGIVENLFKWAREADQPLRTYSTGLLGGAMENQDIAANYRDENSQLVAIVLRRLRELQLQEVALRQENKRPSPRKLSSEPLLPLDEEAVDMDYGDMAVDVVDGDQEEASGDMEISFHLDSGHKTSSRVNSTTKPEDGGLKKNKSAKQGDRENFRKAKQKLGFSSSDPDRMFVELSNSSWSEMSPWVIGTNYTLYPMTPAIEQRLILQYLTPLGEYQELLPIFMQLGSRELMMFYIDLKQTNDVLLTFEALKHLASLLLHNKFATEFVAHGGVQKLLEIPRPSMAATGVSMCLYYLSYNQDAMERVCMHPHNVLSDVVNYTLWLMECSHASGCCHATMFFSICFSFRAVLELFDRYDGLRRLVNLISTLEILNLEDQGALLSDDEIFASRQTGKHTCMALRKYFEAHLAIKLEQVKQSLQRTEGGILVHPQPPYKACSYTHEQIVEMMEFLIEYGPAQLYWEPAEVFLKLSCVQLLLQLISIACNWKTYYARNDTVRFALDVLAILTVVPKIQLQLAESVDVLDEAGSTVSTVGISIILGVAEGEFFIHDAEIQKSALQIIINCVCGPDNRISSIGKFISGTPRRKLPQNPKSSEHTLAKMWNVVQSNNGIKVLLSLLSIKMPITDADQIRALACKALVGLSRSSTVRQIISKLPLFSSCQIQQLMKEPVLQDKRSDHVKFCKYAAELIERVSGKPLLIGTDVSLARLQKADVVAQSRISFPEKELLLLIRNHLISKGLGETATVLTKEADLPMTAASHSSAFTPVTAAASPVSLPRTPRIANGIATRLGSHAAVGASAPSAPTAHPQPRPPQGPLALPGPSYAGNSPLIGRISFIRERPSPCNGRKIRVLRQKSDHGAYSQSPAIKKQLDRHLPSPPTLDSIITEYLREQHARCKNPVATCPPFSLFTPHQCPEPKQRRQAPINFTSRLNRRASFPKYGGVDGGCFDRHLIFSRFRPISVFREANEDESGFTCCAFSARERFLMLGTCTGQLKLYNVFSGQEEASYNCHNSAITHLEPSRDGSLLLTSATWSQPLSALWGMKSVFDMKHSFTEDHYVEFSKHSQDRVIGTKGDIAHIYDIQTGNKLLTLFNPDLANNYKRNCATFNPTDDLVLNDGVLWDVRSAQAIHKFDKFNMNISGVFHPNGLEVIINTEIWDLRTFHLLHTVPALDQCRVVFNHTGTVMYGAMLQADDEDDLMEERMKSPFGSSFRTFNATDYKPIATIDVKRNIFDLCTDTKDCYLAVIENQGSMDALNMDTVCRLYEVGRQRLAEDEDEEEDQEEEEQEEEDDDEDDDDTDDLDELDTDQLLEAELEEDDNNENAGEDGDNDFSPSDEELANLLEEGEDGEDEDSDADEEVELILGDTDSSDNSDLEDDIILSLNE
UniProt Q13258, sequence (whole entry, unmodified, looked up): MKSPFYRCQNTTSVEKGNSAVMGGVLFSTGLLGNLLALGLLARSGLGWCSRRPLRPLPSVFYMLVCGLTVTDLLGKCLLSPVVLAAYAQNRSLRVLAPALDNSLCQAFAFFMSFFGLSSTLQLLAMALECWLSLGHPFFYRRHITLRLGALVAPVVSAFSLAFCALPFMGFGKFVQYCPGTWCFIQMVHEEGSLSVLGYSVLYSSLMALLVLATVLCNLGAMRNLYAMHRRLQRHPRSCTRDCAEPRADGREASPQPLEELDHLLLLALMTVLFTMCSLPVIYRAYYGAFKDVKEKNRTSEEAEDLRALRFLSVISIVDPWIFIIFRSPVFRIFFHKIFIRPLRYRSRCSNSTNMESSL
UniProt P04746, sequence (whole entry, looked up): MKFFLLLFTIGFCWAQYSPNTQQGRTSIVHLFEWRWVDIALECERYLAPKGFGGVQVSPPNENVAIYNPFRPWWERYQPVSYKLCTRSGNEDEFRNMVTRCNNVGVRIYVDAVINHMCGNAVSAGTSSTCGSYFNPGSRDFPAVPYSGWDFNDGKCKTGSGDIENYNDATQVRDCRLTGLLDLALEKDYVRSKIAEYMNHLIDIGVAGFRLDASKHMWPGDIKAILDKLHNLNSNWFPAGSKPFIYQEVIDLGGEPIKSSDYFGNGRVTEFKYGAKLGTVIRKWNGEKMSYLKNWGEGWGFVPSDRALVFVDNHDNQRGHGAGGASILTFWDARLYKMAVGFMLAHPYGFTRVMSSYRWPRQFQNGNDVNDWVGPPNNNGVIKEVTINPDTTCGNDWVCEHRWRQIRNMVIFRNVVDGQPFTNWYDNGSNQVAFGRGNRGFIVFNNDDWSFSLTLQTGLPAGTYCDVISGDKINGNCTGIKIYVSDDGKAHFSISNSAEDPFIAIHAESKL
UniProt P61981, sequence (whole entry, looked up): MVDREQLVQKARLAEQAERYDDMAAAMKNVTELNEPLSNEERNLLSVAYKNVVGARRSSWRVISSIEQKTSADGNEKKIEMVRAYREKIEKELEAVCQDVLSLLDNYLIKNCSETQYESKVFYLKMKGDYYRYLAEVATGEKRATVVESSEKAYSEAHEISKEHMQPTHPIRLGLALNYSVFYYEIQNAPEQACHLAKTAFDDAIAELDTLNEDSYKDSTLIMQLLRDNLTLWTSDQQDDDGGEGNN

SMILES | tested on | assay | test system | conditions | how to read | quantity | value
COc1cc(-c2cncc3c2CN(C)Cc2cc(N4CCNCC4)ccc2-3)cc(OC)c1OC | DDR1 (Homo sapiens, UniProt Q08345) | kinase activity | – | 1 µM, human enzyme, with: ATP 10 µM | reference: DMSO control | remaining activity | 29%
CCc1ccc(C(=O)Oc2cc(C=O)ccc2[N+](=O)[O-])cc1 | YWHAG/RELA, phospho-Ser45 p65 peptide (Homo sapiens, UniProt P61981+Q04206) | ternary complex formation, stabilizer, fluorescence anisotropy | – | – | – | EC50 | > 1000 µM
CCCc1cc(C)[nH]c(=O)c1CNC(=O)c1cc(-c2ccc(N3CCN(C(C)C)CC3)nc2)cc2c1cnn2C(C)C | OCI-Ly1 | – | – | 0.5 µM, 120 h | – | viability | 110%
O=C1OC(c2ccccc2)=N/C1=C\c1ccc(O)c(O)c1 | Pancreatic alpha-amylase (Homo sapiens, UniProt P04746) | inhibitor, Lineweaver-Burk | – | 100 ppm, with: starch substrate | – | Km | 1.09 mM
c1cncc(OC[C@@H]2CN(CCN3CCc4ccccc43)CCO2)c1 | DRD5 (Homo sapiens, UniProt P21918) | radioligand binding | – | concentration not given, with: [3H]SCH23390 | – | inhibition | 5.5%
CCN(CC)C(=O)C1(c2ccccc2)CC1CN.Cl (stereo not drawn) | Nuclear receptor subfamily 2 group C member 2 ligand-binding domain | SPR imaging | – | 600 nM | – | koff | 5.15e-06 s⁻¹
CN1CC2c3ccccc3Oc3ccc(Cl)cc3C2C1 (stereo not drawn) | HTR1A (Homo sapiens, UniProt P08908, S199A) | agonist | – | – | – | EC50 | 0.00676 µM
CCCCC[C@H](O)/C=C/[C@H]1C(=O)C[C@H](O)[C@@H]1C/C=C\CCCC(=O)O | PTGDR (Homo sapiens, UniProt Q13258, D262A) | agonist | – | 0.1562 µM | – | activation | 88.8%
C=CC(=O)N1CCC(COCC(=O)N2CCN(c3nc(-c4cnc(N)nc4C(F)F)nc(N4CCOC[C@@H]4C)n3)CC2)CC1 | ACVR2B (Homo sapiens, UniProt Q13705) | KINOMEscan | – | 1 µM | reference: DMSO control | remaining binding | 88%
CC(=O)c1ccc2cc(S(=O)(=O)Nc3ccc(F)cc3)ccc2c1 | STAT3 (Homo sapiens, UniProt P40763) | tyrosine phosphorylation, inhibitor, ELISA, measured: phospho-Tyr705 | – | – | – | log IC50 | 0.555
COc1c(O[C@@H]2O[C@H](CO)[C@@H](O)[C@H](O)[C@H]2O)cc2c(c1O)C(=O)c1c(cc(C)c(O)c1OC)C2=O | HepaRG co-cultured with HK-2 | MTT | – | 16.67 µM, 24 h | reference: untreated control | cell viability | 101 ± 9.23%
CC[C@@H](C)[C@@H](NC(=O)[C@@H](Cc1ccc(O)cc1)NC(=O)[C@H]1CCCN1C(=O)[C@@H](CCCNC(=N)N)NC(=O)[C@H](N)Cc1c[nH]cn1)C(=O)N[C@H](C)C(=O)N[C@H](Cc1c[nH]cn1)C(=O)N[C@H](CCCNC(=N)N)C(=O)N[C@@H](C(=O)N[C@H](Cc1ccc(O)cc1)C(=O)N[C@H](CO)C(=O)N[C@H](Cc1ccccc1)C(N)=O)C(C)C | Transferrin receptor protein 1 (Tfrc, Mus musculus, UniProt Q62351) | flow cytometry | MC-38 | 2 h, unit not given | reference: 0 h | surface expression | 0.94 and 0.931
CC[S+]([O-])c1nc(-c2ccccc2)cc(C(F)(F)F)n1 (stereo not drawn) | Exportin-1 (XPO1, Homo sapiens, UniProt O14980) | nuclear export, high content imaging | HeLa Kyoto reporter | 50 µM, 2 h | – | cells with nuclear reporter | 2.96% and 0.95% and 4.58%
Cc1ccccc1C1CC(=O)c2c(C)nc(N)nc2C1 (stereo not drawn) | DCAF1 (Homo sapiens, UniProt Q9Y4B6) | binding, affinity selection mass spectrometry | – | – | reference: other proteins in batch | log fold enrichment | -0.0483
Clc1ccc(COC(Cn2ccnc2)c2ccc(Cl)cc2Cl)c(Cl)c1 (stereo not drawn) | Nuclear receptor subfamily 2 group C member 2 ligand-binding domain | SPR imaging | – | 600 nM | – | koff | 6.88e-06 s⁻¹
Nc1ncnc2c1ncn2[C@@H]1O[C@H](COP(=O)(O)OP(=O)(O)OP(=O)(O)O)[C@@H](O)[C@H]1O | Hexokinase-3 (HK3, Homo sapiens, UniProt P52790, R480W) | substrate | – | mutant R480W, with: glucose 0.5 mM | – | kcat | 47 ± 7 s⁻¹
N#Cc1ccc2c(-c3ccncc3)c(-c3ccc(F)cc3)nn2c1 | RIPK2 (Homo sapiens, UniProt O43353) | NanoBRET | HEK293 | 1.0 µM | – | receptor occupancy | 40 to 70%
O=C(Nc1cccnn1)N1CCC(=Cc2cccc(Oc3ccc(C(F)(F)F)cn3)c2)CC1 | Faah (Mus musculus, UniProt O08914) | enzyme activity, inhibitor, ex vivo | rat, liver | oral, 8 h | – | ED50 | 2 mg/kg
CN(C)C(=O)C(CCN1CCC(O)(c2ccc(Cl)cc2)CC1)(c1ccccc1)c1ccccc1 | Calcium-activated potassium channel subunit alpha-1, with LRRC26 γ1 subunit (KCNMA1, Homo sapiens, UniProt Q12791) | BK current, inhibitor, inside-out patch clamp | excised membrane patch | 0.1 µM, γ1 coexpressed, individual fits, with: nominally 0 Ca2+ cytosolic | reference: without loperamide | normalized Gmax | 0.906 ± 0.028
Cc1nc(CSc2nc(SCc3ccc(C(C)C)cc3)nc(=O)[nH]2)cs1 | TOP2A (Homo sapiens, UniProt P11388) | decatenation | – | 15.6 µM | – | mean decatenated DNA | 52.4%
O=c1oc2c(O)c(O)cc3c(=O)oc4c(O)c(O)cc1c4c23 | OCI-Ly1 | – | – | 1 µM, 120 h | – | viability | 79.6%
